Measured values from different studies.
Lines come from different studies, so protocols differ. Several values in a cell are separate wells, animals, samples, runs or records. ± gives the spread as reported.

COc1cc2[nH]c(C)c(-c3ccc(OC(C)C)cc3)c(=O)c2cc1Cl has a Papp of 427 ×10⁻⁶ cm/s (PAMPA; pH 7.4).
The EC50 of C[n+]1cc2c3c(ccc2c2ccc4cc5c(cc4c21)OCO5)OCO3 is reported as 4 µM (Toxoplasma gondii; bradyzoite growth; pH 8.2, alkaline-induced bradyzoites).
Nc1ncnc2c1ncn2[C@@H]1O[C@H](CO)C[C@H]1O has a cytotoxicity of 20.7% and 17.2% and 13.2% (LDH release; human ESC-derived lung organoids; concentration not given, 4 days).
For OC[C@H]1O[C@@H](c2ccc(F)c(Cc3cc4ccccc4s3)c2)[C@H](O)[C@@H](O)[C@@H]1O, “hypoglycaemia-related adverse event” read 2% (Japanese patients, type 1 diabetes; oral, 100 mg/day, onset day 4; relative to: patients).
CC(C)NCC(O)c1ccc(NS(C)(=O)=O)cc1 (racemic): “mean blood pressure” 37 ± 0.2 mmHg (male Hartley guinea pigs, anaesthetized; intravenous, 10 mg/kg group, baseline before infusion).
C=CC(=O)N1CCC(c2ccc(C(N)=O)c(-c3ccc(Oc4ccccc4)cc3)n2)CC1 gave an incidence of 0.9% (serious adverse event Endophthalmitis; patients with relapsed/refractory MCL; oral).
Under “highest dose without toxicity”, CC(C)C[C@H](NC(=O)[C@@H]1COCCCCCC(=O)N2C[C@H](F)C[C@H]2C(=O)N1)C(=O)[C@@]1(C)CO1 is recorded as 100 mg/kg (male BALB/c mice; intravenous, 72 h).
The dose-normalised AUC(0-last) of C[C@@]1(c2cc(NC(=O)c3ccc(C#N)cn3)ccc2F)C=CSC(N)=N1 is reported as 54.7 ng·h/mL (elderly humans, both sexes, plasma; oral, 1 mg single dose).
For Cc1nnc(C(=O)NC(C)(C)c2nc(C(=O)NCc3ccc(F)cc3)c(O)c(=O)n2C)o1, the pKa (basic) was < 2.
The tissue uptake of CC(C)NCCCC[C@@H]1NC(=O)[C@H](Cc2ccc(O)cc2)NC(=O)[C@H](Cc2ccccc2)NC(=O)CC[C@H](C(=O)N[C@@H](CCCCNC(C)C)C(=O)N[C@@H](CCCCNC(=O)[C@H](CCC(=O)O)NC(=O)[C@H](CCC(=O)O)NC(=O)[C@H](CCC(=O)O)NC(=O)CN2CCN(CC(=O)O)CCN(CC(=O)O)CCN(CC(=O)O)CC2)C(N)=O)NC(=O)CNC(=O)[C@H](Cc2ccc3ccccc3c2)NC(=O)[C@@H](CCCNC(=N)N)NC1=O [gallium-68 labelled] is reported as 0.62 %ID/g (mouse with Granta-519 xenograft, lung; intravenous, 1 h).
O=C(Nc1nc2cccc(-c3ccc(CN4CCS(=O)(=O)CC4)cc3)n2n1)C1CC1: “treatment-emergent adverse events” 0% (item: thrombocytopenia; rheumatoid arthritis patients; oral, 200 mg once daily, 4 weeks, any relatedness).
For CNC(=O)c1ccc(-c2cnc3ncc(Cc4ccc5ncccc5c4)n3n2)cc1F, “alkaline phosphatase increase incidence (all grades)” read 0% (CTCAE v4.0, any causality; human gastric cancer patients; oral, 600 mg twice daily, expansion cohort at RP2D).
The EC90 of [H]/N=C(/NCCCCC)N/N=C/c1c[nH]c2ccc(OC)cc12 is reported as 8.34 µM (Toxoplasma gondii; parasite growth; HFF, bradyzoite, alkaline-induced).
COc1ccnc(CNC(=O)c2cn(Cc3ccc(Cn4ccccc4=O)cc3)nc2C(F)(F)F)c1F has a plasma clearance of 7.07 mL/min/kg (rat, Sprague-Dawley, male, plasma; intravenous, 1 mg/kg).
For Cc1ccc(CCC(=O)Nc2nnc(S(N)(=O)=O)s2)cc1, “unbound plasma concentration” read “not detected” (BALB/c mice, plasma; oral, 20 mg/kg, 24 h).
The unbound Cmax of COCc1cc(C(=O)Nc2cc([C@H]3CC[C@@H](OC(=O)NC(C)C)C3)[nH]n2)n(C)n1 is reported as 1680 nM (OVCAR-3 xenograft, NOD/SCID gamma mice, plasma; oral, 75 twice daily, tumour growth inhibition study).
CC(C)c1nc(N(C)S(C)(=O)=O)nc(-c2ccc(F)cc2)c1/C=C/[C@@H](O)C[C@@H](O)CC(=O)O gave a Tlast of 72 h (human, plasma; oral, 10 mg, median, range, with: vepdegestrant 200 mg).
N#Cc1ccc(-c2cnc3ccc(-c4ccc(C(=O)N5CCOCC5)cc4)cn23)cc1 — result for “placebo-corrected change from baseline”: -1.2 ms (item: QRS interval; healthy volunteers; oral, 10 mg, fed, time-averaged).
Cn1cc(-c2ccc(-c3cncc(Cl)c3N3CCC4(CCNC4=O)CC3)cc2)cn1: “log2 fold change” 1.93 (COLO 205; gene expression, microarray, item: ELF3 mRNA; concentration not given, 6 h; relative to: untreated cells).
With COc1cc2[nH]c(C)c(-c3ccccc3CO)c(=O)c2cc1Cl the Papp was 19 ×10⁻⁶ cm/s (PAMPA; pH 7.4).
Under “QTc interval (Bazett)”, CCN1/C(=C/C(C)=O)Sc2ccc(F)cc21 is recorded as 328 ± 15 ms (cynomolgus monkey; oral, 100 mg/kg, 24 h post-dose).
The vomiting incidence of Cc1ccc(Sc2ccccc2N2CCNCC2)c(C)c1 is reported as 33.3% (healthy adult men; oral, 40 mg single dose, treatment-emergent adverse events).
For O=C(O)C(F)(F)F, “pKa shift vs literature” read 0.5 to 1 pKa units (19F NMR chemical shift titration; lower pKa than literature).
C=CC(=O)N(C)CCOc1c(N)ncnc1-c1cc(F)cc(NC(=O)c2ccc(C3CC3)cc2F)c1C gave an AUC of 269 ng·h/mL (human, whole blood; oral, 100 mg single dose).

Excerpt of the above:
For Cc1ccc(CCC(=O)Nc2nnc(S(N)(=O)=O)s2)cc1, “unbound plasma concentration” read “not detected” (BALB/c mice, plasma; oral, 20 mg/kg, 24 h).
COc1ccnc(CNC(=O)c2cn(Cc3ccc(Cn4ccccc4=O)cc3)nc2C(F)(F)F)c1F has a plasma clearance of 7.07 mL/min/kg (rat, Sprague-Dawley, male, plasma; intravenous, 1 mg/kg).
C=CC(=O)N1CCC(c2ccc(C(N)=O)c(-c3ccc(Oc4ccccc4)cc3)n2)CC1 gave an incidence of 0.9% (serious adverse event Endophthalmitis; patients with relapsed/refractory MCL; oral).
